Results of several laboratories.
Protocols differ between the studies behind these lines. “And” joins repeats or separate records; there may be more than shown. ± marks the error that the study gave.
Maoa: Amine oxidase [flavin-containing] A (Maoa, Rattus norvegicus, UniProt P21396)
Sequence of UniProt P21396 (whole entry, looked up): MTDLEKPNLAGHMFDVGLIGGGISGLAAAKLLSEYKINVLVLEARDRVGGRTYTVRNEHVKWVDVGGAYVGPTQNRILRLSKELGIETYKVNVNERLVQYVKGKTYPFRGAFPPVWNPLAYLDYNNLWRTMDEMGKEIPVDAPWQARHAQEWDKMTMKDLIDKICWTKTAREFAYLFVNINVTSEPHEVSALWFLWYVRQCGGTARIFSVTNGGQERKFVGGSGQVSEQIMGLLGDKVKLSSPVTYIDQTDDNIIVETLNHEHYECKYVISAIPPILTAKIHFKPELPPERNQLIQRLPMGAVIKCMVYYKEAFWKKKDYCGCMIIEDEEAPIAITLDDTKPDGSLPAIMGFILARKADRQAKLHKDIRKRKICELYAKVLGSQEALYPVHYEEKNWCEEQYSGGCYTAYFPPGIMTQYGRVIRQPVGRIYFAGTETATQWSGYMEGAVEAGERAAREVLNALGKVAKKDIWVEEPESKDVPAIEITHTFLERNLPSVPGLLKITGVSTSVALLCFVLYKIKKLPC
uncharacterized protein: uncharacterized protein (Pelagibacter ubique, UniProt Q4FKZ8)
GAP50: Glideosome-associated protein 50 (GAP50, Plasmodium falciparum, UniProt Q8I2X3)
Sequence of UniProt Q8I2X3 (whole entry, looked up): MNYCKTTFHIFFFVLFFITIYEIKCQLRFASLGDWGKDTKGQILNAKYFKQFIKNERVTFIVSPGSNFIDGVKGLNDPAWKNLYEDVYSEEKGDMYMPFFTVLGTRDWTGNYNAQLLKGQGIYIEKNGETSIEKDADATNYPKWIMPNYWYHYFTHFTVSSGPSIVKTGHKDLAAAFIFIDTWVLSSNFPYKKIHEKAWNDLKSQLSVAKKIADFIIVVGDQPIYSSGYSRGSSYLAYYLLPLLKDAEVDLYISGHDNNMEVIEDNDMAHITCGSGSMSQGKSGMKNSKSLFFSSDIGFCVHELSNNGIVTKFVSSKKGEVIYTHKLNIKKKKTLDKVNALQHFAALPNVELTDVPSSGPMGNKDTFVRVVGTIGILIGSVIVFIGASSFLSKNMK
USP51 ZnF-UBD domain: Ubiquitin carboxyl-terminal hydrolase 51, ZnF-UBD domain (USP51, Homo sapiens, UniProt Q70EK9)
Sequence of UniProt Q70EK9 (whole entry, looked up): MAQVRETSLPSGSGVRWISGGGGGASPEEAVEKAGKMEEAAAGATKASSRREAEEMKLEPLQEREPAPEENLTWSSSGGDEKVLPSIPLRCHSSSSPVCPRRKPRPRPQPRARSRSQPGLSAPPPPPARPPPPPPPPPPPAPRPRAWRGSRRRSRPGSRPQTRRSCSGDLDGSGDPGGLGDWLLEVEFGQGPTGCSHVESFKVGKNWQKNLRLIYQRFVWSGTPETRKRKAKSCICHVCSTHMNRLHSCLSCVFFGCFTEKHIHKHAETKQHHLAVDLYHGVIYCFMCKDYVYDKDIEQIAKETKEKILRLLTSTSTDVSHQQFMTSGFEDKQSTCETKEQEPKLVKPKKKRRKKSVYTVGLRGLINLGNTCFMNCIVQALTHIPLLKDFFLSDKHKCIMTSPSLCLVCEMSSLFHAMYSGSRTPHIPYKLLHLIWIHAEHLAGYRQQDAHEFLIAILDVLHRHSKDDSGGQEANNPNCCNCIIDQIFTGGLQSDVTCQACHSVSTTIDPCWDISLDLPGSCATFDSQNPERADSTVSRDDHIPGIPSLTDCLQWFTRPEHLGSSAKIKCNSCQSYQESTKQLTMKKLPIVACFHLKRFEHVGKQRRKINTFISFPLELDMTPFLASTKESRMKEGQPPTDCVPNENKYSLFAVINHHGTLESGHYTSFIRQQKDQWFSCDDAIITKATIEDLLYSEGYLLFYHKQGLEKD
NOD2 LRR domain: Nucleotide-binding oligomerization domain-containing protein 2, LRR domain (NOD2, Homo sapiens, UniProt Q9HC29)
Sequence of UniProt Q9HC29 (whole entry, unmodified, looked up): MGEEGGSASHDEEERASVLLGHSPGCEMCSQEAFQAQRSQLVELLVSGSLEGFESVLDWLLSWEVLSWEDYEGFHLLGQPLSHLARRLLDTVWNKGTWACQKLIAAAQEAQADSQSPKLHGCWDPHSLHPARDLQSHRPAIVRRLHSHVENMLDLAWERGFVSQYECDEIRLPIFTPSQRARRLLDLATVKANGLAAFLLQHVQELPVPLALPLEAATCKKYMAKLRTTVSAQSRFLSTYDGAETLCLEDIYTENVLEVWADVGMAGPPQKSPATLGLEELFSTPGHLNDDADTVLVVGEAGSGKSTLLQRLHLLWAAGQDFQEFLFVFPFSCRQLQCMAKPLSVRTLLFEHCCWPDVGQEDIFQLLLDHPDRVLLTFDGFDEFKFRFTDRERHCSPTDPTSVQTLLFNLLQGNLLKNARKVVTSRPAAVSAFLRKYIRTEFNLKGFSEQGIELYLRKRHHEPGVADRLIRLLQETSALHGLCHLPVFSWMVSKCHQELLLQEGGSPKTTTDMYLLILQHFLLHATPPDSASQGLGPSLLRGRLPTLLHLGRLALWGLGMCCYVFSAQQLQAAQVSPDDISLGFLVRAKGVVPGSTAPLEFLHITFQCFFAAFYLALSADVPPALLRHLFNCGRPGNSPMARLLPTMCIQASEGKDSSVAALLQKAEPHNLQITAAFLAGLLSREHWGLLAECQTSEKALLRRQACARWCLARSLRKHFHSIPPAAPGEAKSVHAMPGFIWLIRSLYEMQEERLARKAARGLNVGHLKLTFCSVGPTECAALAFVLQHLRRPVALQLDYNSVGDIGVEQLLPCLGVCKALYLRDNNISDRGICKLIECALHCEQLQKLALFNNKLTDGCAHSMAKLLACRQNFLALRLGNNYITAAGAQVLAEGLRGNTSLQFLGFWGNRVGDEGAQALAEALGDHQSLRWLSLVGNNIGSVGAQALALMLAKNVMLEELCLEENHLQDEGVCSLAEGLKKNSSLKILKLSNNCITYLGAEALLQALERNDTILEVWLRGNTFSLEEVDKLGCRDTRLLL
Sequence of UniProt P25123 (whole entry, looked up): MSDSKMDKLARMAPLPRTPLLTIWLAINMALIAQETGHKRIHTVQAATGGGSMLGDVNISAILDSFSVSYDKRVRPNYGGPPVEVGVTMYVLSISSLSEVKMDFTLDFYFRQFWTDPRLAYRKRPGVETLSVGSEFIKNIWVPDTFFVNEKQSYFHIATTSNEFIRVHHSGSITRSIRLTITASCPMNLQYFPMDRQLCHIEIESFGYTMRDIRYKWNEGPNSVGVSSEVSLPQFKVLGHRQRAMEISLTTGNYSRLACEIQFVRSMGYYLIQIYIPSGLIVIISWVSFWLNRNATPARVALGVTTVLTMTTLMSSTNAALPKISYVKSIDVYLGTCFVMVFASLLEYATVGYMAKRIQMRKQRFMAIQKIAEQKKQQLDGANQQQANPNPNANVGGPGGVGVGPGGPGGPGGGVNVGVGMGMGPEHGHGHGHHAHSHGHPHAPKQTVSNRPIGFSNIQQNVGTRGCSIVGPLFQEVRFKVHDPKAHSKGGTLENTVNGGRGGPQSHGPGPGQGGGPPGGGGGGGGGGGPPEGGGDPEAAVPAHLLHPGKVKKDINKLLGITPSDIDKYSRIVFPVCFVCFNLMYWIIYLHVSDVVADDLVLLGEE
Sequence of UniProt Q03111 (whole entry, looked up): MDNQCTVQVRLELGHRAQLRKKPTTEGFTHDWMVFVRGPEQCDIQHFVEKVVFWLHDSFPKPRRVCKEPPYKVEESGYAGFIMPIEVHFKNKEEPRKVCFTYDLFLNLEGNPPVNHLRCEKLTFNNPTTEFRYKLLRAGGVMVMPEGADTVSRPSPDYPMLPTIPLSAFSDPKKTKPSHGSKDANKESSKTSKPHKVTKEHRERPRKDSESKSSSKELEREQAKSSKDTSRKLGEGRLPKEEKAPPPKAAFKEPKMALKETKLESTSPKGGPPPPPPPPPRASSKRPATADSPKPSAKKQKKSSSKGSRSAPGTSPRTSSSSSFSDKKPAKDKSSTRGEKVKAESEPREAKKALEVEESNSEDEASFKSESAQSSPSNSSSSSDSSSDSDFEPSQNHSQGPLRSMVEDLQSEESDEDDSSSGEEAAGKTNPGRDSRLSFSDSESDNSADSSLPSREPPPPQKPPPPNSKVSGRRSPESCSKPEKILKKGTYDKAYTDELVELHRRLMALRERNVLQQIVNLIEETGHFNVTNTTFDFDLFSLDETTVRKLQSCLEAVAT
Sequence of UniProt O74544 (whole entry, unmodified, looked up): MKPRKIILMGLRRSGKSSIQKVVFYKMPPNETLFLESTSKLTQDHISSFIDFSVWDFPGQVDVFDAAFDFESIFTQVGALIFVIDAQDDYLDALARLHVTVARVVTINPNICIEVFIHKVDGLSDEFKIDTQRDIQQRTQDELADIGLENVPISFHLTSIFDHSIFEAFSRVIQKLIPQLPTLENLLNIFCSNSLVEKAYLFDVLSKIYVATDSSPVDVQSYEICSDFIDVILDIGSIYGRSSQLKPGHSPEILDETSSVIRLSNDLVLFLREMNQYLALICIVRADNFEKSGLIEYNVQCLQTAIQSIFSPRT
Sequence of UniProt P31641 (whole entry, unmodified, looked up): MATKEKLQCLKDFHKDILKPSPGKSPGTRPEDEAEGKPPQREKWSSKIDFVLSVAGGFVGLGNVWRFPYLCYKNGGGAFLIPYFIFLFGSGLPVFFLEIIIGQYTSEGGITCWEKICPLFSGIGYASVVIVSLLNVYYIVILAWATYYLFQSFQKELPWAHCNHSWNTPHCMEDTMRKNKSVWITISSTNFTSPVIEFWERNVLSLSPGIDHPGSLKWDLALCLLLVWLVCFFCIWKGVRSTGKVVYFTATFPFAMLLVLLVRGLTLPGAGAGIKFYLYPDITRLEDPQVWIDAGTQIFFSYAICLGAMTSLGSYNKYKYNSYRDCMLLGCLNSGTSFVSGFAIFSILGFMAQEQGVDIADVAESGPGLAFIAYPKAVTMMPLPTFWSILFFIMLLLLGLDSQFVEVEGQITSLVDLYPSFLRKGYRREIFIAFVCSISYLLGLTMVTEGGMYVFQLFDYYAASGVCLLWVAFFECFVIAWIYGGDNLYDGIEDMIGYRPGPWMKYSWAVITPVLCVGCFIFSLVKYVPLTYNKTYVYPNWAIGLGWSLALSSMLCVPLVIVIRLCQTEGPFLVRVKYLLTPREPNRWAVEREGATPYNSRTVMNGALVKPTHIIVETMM
Sequence of UniProt Q9QUI0 (whole entry, looked up): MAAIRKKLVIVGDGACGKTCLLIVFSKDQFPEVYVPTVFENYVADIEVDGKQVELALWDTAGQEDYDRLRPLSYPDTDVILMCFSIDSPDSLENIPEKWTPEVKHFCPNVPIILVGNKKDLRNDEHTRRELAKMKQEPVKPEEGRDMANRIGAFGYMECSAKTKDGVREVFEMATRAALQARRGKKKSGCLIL

NCc1ccc(Br)cc1 — Kd (Maoa; pH 7.5, deprotonated amine, pKa-corrected): 0.76 µM
NCC(=O)O — Kd (uncharacterized protein; isothermal titration calorimetry; Candidatus Pelagibacter ubique; direct titration): 5.46 ± 0.06 µM
c1ccc(C[C@@H]2CN(c3nccc(Oc4ccc(-n5ccnc5)cc4)n3)CCN2)cc1 — Kd (GAP50; binding, surface plasmon resonance; 1:1 binding model): 53.9 µM
Nc1nc2c(ncn2[C@@H]2O[C@H](COP(=O)(O)OP(=O)(O)OP(=O)(O)O)[C@@H](O)[C@H]2O)c(=O)[nH]1 — Kd (GTP-binding protein gtr2, with Gtr1 (gtr2, Schizosaccharomyces pombe, UniProt O74544, F161W); binding, UV crosslinking equilibrium titration; 4 °C, no 7.4): 0.027 µM
Cc1ccc(Oc2ccc(NC(=O)CNc3ccccc3N3CCCC3=O)cc2)cc1 — Kd (GAP50; binding, surface plasmon resonance; 1:1 binding model): 1.95 µM
CC1CCN(CCCNC(=O)c2cc3[nH]ccc3cc2Cl)CC1 — Kd (Nuclear receptor subfamily 4 group A member 2 (Homo sapiens, UniProt P43354); isothermal titration calorimetry; 25 °C): no binding
Nc1ncnc2c1ncn2[C@@H]1O[C@H](CO)[C@@H](O)[C@@H]1O — Kd (Heat shock cognate 71 kDa protein, nucleotide-binding domain (HSPA8, Homo sapiens, UniProt P11142); binding, SPR; nucleotide-binding domain, residues 1-381): > 1000 µM
Fc1ccc(-c2nc(-c3c[nH]c4ccc(Br)cc34)[nH]c2-c2ccc(F)cc2)cc1 — Kd (GAP50; binding, surface plasmon resonance; 1:1 binding model): 48.3 µM
O=C(CCCCCCNC(=O)c1cnc(N(c2ccccc2)c2ccccc2Cl)nc1)NO — Kd (Polyamine deacetylase HDAC10 (HDAC10, Homo sapiens, UniProt Q969S8); inhibitor, competition pulldown; SW620 and MV4-11 lysate; 1 h): 3.35 µM
NC(=O)c1cc(-n2c(CCC(=O)O)nc3ccccc32)cs1 — Kd (USP51 ZnF-UBD domain): > 1000 µM
CC(=O)NC1C(O)OC(CN)C(O)[C@@H]1O[C@H](C)C(=O)N[C@@H](C)C(=O)N[C@H](CCC(=O)O)C(N)=O (some centres unmarked) — Kd (NOD2 LRR domain; binding, SPR, immobilised ligand; LRR domain wild type): 0.212 ± 0.024 µM
O=C(O)CCn1c(=O)oc2ccccc21 — Kd (USP51 ZnF-UBD domain): > 1000 µM
C[C@H](O)C(=O)O — Kd (T156H-R445H zinc sensor protein; binding, fluorescence lifetime; added: 100 µM Zn2+): 25 ± 9 µM
O=C(Nc1ccncc1)c1cn(Cc2ccc(Cl)c(Cl)c2)c(=O)c2cnn(C3CCNCC3)c12 — Kd (Fascin (FSCN1, Homo sapiens, UniProt Q16658); binding): 0.08 µM
O=C(O)Cc1cc(-c2ccc(C(=O)O)s2)sc1-c1ccc(-c2sc(-c3ccc(C(=O)O)s3)cc2CC(=O)O)s1 — Kd (Microtubule-associated protein tau, 0N4R isoform, aggregated (MAPT, Homo sapiens, UniProt P10636); binding, fluorescence; 10% sucrose tau fraction): 30 µM
O=C(O)COc1cnc2ccccc2n1 — Kd (USP51 ZnF-UBD domain): > 1000 µM
Cc1ccc2oc(-c3cc(NC(=O)Cc4ccccc4)ccc3Cl)nc2c1 — Kd (GAP50; binding, surface plasmon resonance; 1:1 binding model): 36.1 µM
CC(=O)N[C@H]1C(O)O[C@H](CO)[C@@H](O)[C@@H]1O[C@H](C)C(=O)N[C@@H](C)C(=O)N[C@H](CCC(=O)O)C(N)=O (mixture of isomers) — Kd (NOD2 LRR domain; binding, SPR, immobilised ligand; LRR domain wild type): 0.212 ± 0.024 µM
NCc1ccc(C(F)(F)F)cc1 — Kd (Maoa; steady-state isotope effects; pH 7.5): 284 µM
C[C@@H]1C(=O)O[C@H]2C[C@@]34[C@H]5C[C@@H](C(C)(C)C)[C@]36[C@@H](OC(=O)[C@@H]6O)O[C@@]4(C(=O)O5)[C@]21O — Kd (Rdl (Drosophila melanogaster, UniProt P25123); ion current, inhibitor, two-electrode voltage clamp; from koff/kon, added: GABA at EC50): 0.0019 µM
C=C(C)C(=O)NCCCC[C@H](NC(=O)[C@H](CCCNC(=N)N)NC(=O)[C@@H]1CCCN1C(=O)[C@H](C)NC(C)=O)C(=O)N[C@@H](CCC(N)=O)C(=O)N[C@@H](CC(C)C)C(=O)N[C@@H](C)C(N)=O — Kd (Protein ENL, YEATS domain (MLLT1, Homo sapiens, UniProt Q03111); binding, tryptophan fluorescence; pH 7.0): 13 µM
O=C(O)Cc1cccc2cccnc12 — Kd (USP51 ZnF-UBD domain): > 1000 µM
CC(C)C[C@H](NC(=O)[C@@H]1CCCN1C(=O)[C@H](CCC(N)=O)NC(=O)[C@H](CC(N)=O)NC(=O)[C@H](Cc1c[nH]cn1)NC(=O)[C@H](Cc1ccc(OP(=O)(O)O)cc1)NC(=O)[C@@H](NC(=O)[C@@H]1CCCN1C(=O)[C@H](CC(N)=O)NC(=O)[C@H](CCC(N)=O)NC(=O)[C@@H](NC(=O)[C@H](CO)NC(=O)CNC(=O)[C@H](C)NC(=O)[C@@H]1CCCN1C(=O)c1ccc2c(c1)C(=O)OC21c2ccc(N(C)C)cc2Oc2cc(N(C)C)ccc21)C(C)C)C(C)C)C(=O)N[C@@H](CC(N)=O)C(=O)N1CCC[C@H]1C(=O)N[C@@H](CC(=O)O)C(=O)O — Kd (Tyrosine-protein kinase ABL2, SH2 domain (ABL2, Homo sapiens, UniProt P42684); binding): 0.062 µM
CO[C@H]1O[C@H](COS(=O)(=O)O)[C@@H](O[C@@H]2O[C@@H](C(=O)O)[C@@H](O[C@H]3O[C@H](COS(=O)(=O)O)[C@@H](O[C@@H]4O[C@H](C(=O)O)[C@@H](O[C@H]5O[C@H](COS(=O)(=O)O)[C@@H](O)[C@H](O)[C@H]5NS(=O)(=O)O)[C@H](O)[C@H]4O)[C@H](OS(=O)(=O)O)[C@H]3NS(=O)(=O)O)[C@H](O)[C@H]2OS(=O)(=O)O)[C@H](O)[C@H]1NS(=O)(=O)O — Kd (Beta-2-glycoprotein 1, domain V (APOH, Homo sapiens, UniProt P02749, V266L); isothermal titration calorimetry; 25 mM cacodylate buffer; pH 7.2, 298 K, added: 50 mM NaCl): 4.4 µM
COc1ccc(CN)cc1 — Kd (Maoa; pH 7.5, deprotonated amine, pKa-corrected): 0.43 µM
[H]/N=C(/N)NCC(=O)O — Kd (Sodium- and chloride-dependent taurine transporter (SLC6A6, Homo sapiens, UniProt P31641, L306A); microscale thermophoresis; L306A mutant): no binding
N[C@@H](CO)C(=O)O — Kd (SAR11_1346 protein (Candidatus Pelagibacter sp.); binding, isothermal titration calorimetry; one-set-of-sites model): 0.13 µM and 0.267 µM
CC(=O)N[C@@H]1[C@@H](O)[C@H](O)[C@@H](CO)O[C@H]1O — Kd (NOD2 LRR domain; binding, SPR, immobilised ligand; LRR domain wild type): 0.354 ± 0.04 µM
CS(=O)(=O)c1ccc(-c2cccc(C=C(C#N)C(N)=O)n2)cc1 — Kd (2-mercaptoethanol; thiol adduct formation, UV-visible titration; PBS; pH 7.4): 180 ± 4 µM
c1ccc(Oc2ccc(-c3cc(N4CCOCC4)[nH]n3)cc2)cc1 — Kd (GAP50; binding, surface plasmon resonance; 1:1 binding model): 76.8 µM
NCc1ccccc1 — Kd (Maoa; binding, steady-state isotope effects; pH 7.5, pKa-corrected, deprotonated amine): 6.7 µM
CCCCCCCCNC(=N)N — Kd (voltage-gated sodium channel, squid; steady-state sodium current, open-channel blocker, voltage clamp, internal perfusion; Doryteuthis pealeii, pronase-treated giant axon; pH 7.3, 8-10 °C, inactivation removed, internal): 23 µM
O=C1O[C@H]([C@@H](O)CO)C(O)=C1O — Kd (Transforming protein RhoA (Rhoa, Mus musculus, UniProt Q9QUI0); surface plasmon resonance; mouse protein): 7160 µM
Nc1nc2c(ncn2[C@@H]2O[C@H](COP(=O)(O)OP(=O)(O)O)[C@@H](OP(=O)(O)OP(=O)(O)O)[C@H]2O)c(=O)[nH]1 — Kd (Amidophosphoribosyltransferase (purF, Escherichia coli, UniProt P0AG16); isothermal titration calorimetry): 1.2 µM
O=C(O)CCc1nc2ncccn2n1 — Kd (USP51 ZnF-UBD domain): > 1000 µM
CC(C)C[C@@H]1NC(=O)[C@H](C)NC(=O)CNC(=O)[C@H](CC(N)=O)NC(=O)[C@@H]2CCCN2C(=O)[C@H](Cc2ccc(O)cc2)NC(=O)[C@H](CCCNC(=N)N)NC(=O)[C@H](Cc2ccccc2)NC(=O)[C@@H](NC(=O)[C@H](CCCCN)NC(=O)[C@@H]2CCCN2C(=O)[C@H](CO)NC(=O)[C@H](C)NC(=O)[C@@H](N)Cc2ccc(O)cc2)CSSC[C@@H](C(=O)N[C@H](C(N)=O)[C@@H](C)O)NC(=O)[C@H](C)NC1=O — Kd (fucoidan; binding, isothermal titration calorimetry; pH 7.0, 25 °C): 0.78 µM
Cc1ccc2c(c1C)NC(=O)[C@]21NN=C(c2ccccc2)S1 — Kd (GAP50; binding, surface plasmon resonance; 1:1 binding model): 0.532 µM
O=C(O)CCc1nc2ccccc2c2nc(Cc3ccccc3)nn12 — Kd (USP51 ZnF-UBD domain): > 1000 µM
Nc1nc2c(ncn2[C@H]2C[C@H](O)[C@@H](COP(=O)(O)OP(=O)(O)OP(=O)(O)O)O2)c(=O)[nH]1 — Kd (DNA repair protein REV1, residues 1-746 (REV1, Saccharomyces cerevisiae, UniProt P12689); substrate, rapid chemical quench; pH 7.5, 30 °C, added: primer-template DNA): 460 ± 40 µM
c1ccc(-c2nnc3c4ccccc4c(N4CCNCC4)nn23)cc1 — Kd (GAP50; binding, surface plasmon resonance; 1:1 binding model): 19.7 µM
C[N+](C)(C)CC(=O)O — Kd (uncharacterized protein; isothermal titration calorimetry; Candidatus Pelagibacter ubique; direct titration): < 0.005 µM
O=C(O)CCOc1ccccc1 — Kd (USP51 ZnF-UBD domain): > 1000 µM
CCC(C)NCC(O)Cn1c2ccc(Cl)cc2c2cc(Cl)ccc21 (centres unmarked) — Kd (GAP50; binding, surface plasmon resonance; 1:1 binding model): 47.7 µM
COc1ccccc1O — Kd (Aromatic O-demethylase, cytochrome P450 subunit (gcoA, Amycolatopsis sp., UniProt P0DPQ7); binding, ferric spin-state titration; Amycolatopsis sp. ATCC 39116; ferric enzyme without reductase): 0.13 ± 0.02 µM
C[C@H](N)C(=O)N[C@H](CCC(=O)O)C(N)=O — Kd (Nucleotide-binding oligomerization domain-containing protein 2, LRR domain (NOD2, Homo sapiens, UniProt Q9HC29, W931A); surface plasmon resonance; LRR mutant W931A): 1.45 ± 0.13 µM
Cc1cc2nc3c(=O)[nH]c(=O)nc-3n(C[C@H](O)[C@H](O)[C@H](O)COP(=O)(O)OP(=O)(O)OC[C@H]3O[C@@H](n4cnc5c(N)ncnc54)[C@H](O)[C@@H]3O)c2cc1C — Kd (BAG family molecular chaperone regulator 4 (BAG4, Homo sapiens, UniProt O95429); binding, MS pulldown competition; SW-620 cell lysate): 0.203 µM
O=C(O)CCC(=O)Nc1cccc2ccccc12 — Kd (USP51 ZnF-UBD domain): > 1000 µM
Nc1ncnc2c1ncn2[C@@H]1O[C@H](COP(=O)(O)OP(=O)(O)O)[C@@H](O)[C@H]1O — Kd (Creatine kinase U-type, mitochondrial (CKMT1A, Homo sapiens, UniProt P12532, H99A); microscale thermophoresis; pH 7.0, H61A mutant, no substrate): 58 ± 19 µM
Nc1ncnc2c1ncn2[C@@H]1O[C@H](COP(=O)(O)OP(=O)(O)OP(=O)(O)O)[C@@H](O)[C@H]1O — Kd (Heat shock protein HSP 90-alpha (HSP90AA1, Homo sapiens, UniProt P07900); binding, fluorescence polarization competition; added: geldanamycin-FITC): 112 µM
CCCN1CCN(c2ccc(-c3cncc(Cl)c3N3CCC4(CCNC4=O)CC3)cc2)CC1 — Kd (MED20 human; SILAC competition; LS174T-L5 lysate): 0.01 µM
